Measured values pooled from the literature.
Compare with care: the assays were run in different laboratories. Values joined by “and” are separate records of one study, mostly repeats; a detail may differ. Numbers after ± are the reported error.
JAK3: Tyrosine-protein kinase JAK3 (JAK3, Homo sapiens, UniProt P52333)
UniProt P52333, sequence (whole entry, looked up): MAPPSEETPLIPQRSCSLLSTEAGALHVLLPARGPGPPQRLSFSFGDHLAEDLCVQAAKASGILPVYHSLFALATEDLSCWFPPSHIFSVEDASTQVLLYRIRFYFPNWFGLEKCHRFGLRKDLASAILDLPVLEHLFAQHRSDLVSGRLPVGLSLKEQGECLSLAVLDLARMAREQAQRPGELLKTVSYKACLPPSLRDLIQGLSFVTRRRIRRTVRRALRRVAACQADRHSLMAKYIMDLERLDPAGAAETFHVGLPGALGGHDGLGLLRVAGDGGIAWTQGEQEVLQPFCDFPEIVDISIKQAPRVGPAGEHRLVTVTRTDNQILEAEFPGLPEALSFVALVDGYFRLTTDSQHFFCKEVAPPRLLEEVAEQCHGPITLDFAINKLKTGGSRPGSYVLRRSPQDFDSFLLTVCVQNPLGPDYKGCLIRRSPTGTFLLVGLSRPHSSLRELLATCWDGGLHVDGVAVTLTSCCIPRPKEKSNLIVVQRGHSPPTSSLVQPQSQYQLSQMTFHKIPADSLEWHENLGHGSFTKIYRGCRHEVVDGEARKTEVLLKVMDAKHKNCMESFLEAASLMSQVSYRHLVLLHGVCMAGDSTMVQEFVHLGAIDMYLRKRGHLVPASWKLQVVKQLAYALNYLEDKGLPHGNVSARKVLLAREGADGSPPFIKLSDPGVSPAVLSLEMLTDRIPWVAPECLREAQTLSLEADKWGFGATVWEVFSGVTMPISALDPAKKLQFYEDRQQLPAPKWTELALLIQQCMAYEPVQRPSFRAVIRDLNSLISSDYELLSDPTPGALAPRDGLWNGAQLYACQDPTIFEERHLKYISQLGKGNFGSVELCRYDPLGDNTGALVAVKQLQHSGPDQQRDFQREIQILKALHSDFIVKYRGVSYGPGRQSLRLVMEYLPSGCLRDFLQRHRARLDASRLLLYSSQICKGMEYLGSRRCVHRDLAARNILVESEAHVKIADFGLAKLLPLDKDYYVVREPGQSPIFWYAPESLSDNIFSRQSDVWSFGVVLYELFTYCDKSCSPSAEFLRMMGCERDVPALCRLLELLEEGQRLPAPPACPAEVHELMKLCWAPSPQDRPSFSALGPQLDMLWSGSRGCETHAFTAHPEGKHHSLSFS
Gria1/Gria2: Glutamate receptor AMPA 1/2 (Gria1/Gria2, Rattus norvegicus, UniProt P19490+P19491)
UniProt P19490, sequence (whole entry, looked up): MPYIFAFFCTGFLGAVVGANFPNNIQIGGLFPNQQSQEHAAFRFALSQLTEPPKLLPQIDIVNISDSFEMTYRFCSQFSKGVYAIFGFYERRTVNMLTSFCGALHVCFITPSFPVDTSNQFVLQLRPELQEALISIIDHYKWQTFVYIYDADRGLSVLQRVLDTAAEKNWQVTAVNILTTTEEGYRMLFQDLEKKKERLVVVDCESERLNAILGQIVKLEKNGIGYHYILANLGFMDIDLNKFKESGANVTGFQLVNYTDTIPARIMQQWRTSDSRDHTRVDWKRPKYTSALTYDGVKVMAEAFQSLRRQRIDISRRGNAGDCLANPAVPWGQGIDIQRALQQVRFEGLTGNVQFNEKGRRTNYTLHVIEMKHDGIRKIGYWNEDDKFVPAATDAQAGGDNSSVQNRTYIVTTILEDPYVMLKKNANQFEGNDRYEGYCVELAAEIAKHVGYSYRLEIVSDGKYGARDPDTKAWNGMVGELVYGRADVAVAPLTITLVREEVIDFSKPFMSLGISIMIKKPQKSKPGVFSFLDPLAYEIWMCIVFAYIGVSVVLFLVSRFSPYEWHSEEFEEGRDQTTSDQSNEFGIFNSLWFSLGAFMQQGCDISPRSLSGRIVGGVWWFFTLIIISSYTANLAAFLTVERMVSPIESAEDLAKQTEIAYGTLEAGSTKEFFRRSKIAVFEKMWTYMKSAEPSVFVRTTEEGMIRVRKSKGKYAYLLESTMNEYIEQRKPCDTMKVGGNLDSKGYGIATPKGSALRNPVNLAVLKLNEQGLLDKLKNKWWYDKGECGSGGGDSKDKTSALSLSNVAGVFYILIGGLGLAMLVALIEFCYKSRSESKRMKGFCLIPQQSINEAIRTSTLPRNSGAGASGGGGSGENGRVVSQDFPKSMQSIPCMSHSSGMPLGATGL
UniProt P19491, sequence (whole entry, looked up): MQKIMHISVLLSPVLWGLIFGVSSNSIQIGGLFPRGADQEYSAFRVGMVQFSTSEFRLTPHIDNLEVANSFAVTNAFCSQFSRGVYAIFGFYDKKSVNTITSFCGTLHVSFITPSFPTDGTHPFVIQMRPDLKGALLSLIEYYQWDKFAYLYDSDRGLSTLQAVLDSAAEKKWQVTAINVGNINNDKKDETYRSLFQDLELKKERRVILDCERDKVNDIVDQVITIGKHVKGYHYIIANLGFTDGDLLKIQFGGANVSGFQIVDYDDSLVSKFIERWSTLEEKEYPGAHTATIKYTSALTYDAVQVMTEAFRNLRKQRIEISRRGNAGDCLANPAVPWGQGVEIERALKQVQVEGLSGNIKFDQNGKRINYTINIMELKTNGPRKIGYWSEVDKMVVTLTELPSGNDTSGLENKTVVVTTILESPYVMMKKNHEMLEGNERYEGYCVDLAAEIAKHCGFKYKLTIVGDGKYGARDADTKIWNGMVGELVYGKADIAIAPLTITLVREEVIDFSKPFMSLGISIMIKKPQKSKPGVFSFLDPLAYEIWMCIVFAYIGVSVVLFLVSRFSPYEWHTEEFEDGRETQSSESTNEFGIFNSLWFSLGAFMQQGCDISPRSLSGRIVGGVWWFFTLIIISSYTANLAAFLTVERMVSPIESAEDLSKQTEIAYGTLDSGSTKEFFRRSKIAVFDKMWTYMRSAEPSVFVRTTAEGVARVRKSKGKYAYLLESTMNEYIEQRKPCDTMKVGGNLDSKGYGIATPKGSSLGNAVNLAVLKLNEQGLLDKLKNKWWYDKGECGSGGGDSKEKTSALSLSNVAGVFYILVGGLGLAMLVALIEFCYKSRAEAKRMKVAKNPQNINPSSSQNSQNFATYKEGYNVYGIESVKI
GBA1 R534H: Lysosomal acid glucosylceramidase (GBA1, Homo sapiens, UniProt P04062, R534H)
UniProt P04062, sequence (whole entry, unmodified, looked up): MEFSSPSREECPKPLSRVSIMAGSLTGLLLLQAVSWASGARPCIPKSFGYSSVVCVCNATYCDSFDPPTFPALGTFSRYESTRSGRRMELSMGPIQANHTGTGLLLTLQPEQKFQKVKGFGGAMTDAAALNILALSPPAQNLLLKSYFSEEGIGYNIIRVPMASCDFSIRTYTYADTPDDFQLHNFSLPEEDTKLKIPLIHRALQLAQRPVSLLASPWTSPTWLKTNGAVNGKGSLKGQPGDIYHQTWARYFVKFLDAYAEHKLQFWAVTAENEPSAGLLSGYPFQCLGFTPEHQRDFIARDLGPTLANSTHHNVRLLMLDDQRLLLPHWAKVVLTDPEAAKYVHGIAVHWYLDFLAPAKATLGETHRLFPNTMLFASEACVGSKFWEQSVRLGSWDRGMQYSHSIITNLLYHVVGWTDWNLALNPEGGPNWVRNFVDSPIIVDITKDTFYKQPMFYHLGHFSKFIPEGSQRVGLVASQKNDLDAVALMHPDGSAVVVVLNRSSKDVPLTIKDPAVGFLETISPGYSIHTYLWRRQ
CDK6: Cyclin-dependent kinase 6 (CDK6, Homo sapiens, UniProt Q00534)
UniProt Q00534, sequence (whole entry, looked up): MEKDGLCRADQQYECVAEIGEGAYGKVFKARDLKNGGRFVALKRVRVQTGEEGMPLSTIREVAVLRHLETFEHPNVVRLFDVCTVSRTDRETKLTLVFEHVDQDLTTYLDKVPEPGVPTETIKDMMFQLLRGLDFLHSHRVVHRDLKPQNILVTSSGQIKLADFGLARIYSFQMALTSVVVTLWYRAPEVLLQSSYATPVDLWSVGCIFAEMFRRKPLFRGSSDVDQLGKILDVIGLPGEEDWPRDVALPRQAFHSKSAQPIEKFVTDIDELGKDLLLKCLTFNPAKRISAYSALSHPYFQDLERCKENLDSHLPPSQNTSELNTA
P4HB: Protein disulfide-isomerase (P4HB, Homo sapiens, UniProt P07237)
UniProt P07237, sequence (whole entry, looked up): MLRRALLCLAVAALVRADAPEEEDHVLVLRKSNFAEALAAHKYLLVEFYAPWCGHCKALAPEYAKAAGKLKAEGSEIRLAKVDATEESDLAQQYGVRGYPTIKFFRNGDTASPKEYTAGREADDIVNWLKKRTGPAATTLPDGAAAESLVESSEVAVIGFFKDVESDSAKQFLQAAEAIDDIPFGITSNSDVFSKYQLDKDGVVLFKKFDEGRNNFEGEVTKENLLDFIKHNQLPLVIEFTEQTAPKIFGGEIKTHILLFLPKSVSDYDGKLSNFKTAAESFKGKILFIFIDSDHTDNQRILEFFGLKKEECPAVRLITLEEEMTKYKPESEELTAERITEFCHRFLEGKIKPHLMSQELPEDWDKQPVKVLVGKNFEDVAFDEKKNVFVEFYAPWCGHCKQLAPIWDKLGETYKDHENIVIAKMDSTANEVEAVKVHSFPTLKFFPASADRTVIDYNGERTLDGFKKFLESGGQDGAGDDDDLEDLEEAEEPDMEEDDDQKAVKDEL
PSMB8: Proteasome subunit beta type-8 (PSMB8, Homo sapiens, UniProt P28062)
UniProt P28062, sequence (whole entry, looked up): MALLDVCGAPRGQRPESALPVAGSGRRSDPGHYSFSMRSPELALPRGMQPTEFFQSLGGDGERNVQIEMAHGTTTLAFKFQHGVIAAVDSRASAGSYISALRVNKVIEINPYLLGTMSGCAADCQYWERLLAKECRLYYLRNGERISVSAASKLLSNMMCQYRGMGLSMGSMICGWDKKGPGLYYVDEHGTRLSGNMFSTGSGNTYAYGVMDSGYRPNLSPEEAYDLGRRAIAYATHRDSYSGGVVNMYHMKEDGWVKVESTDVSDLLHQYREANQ
HDAC6: Protein deacetylase HDAC6 (HDAC6, Homo sapiens, UniProt Q9UBN7)
UniProt P13346, sequence (whole entry, unmodified, looked up): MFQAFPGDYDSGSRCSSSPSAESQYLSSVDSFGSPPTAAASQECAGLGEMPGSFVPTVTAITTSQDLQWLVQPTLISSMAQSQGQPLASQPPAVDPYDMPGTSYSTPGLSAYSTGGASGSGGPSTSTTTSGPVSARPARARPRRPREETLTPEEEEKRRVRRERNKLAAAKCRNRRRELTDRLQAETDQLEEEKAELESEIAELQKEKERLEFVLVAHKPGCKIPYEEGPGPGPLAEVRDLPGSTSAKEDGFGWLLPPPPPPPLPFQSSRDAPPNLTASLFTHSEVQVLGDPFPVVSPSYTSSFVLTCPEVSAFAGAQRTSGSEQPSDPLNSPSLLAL

Structure (SMILES) | target | assay | system | conditions | IC50
O=C(CCc1ccc(CNC(C(=O)O)C2CCCCC2)cn1)NO (stereo not shown) | Polyamine deacetylase HDAC10 (HDAC10, Homo sapiens, UniProt Q969S8) | enzyme activity, inhibitor | – | – | 1.7 µM
CCn1nc(Cl)c2c1-c1cnc(N)c(c1)O[C@H](C)c1cc(F)ccc1-c1nn(C)cc1C2 | Serine/threonine-protein kinase PLK4 (PLK4, Homo sapiens, UniProt O00444) | enzyme activity, inhibitor, radiometric | – | – | 0.565 µM
CC(=O)O[C@H]1OC[C@@H]2C=C([C@@]3(C)CCCC(C)(C)C3)CC[C@H]12 | Peptidyl-prolyl cis-trans isomerase F, mitochondrial (PPIF, Homo sapiens, UniProt P30405) | enzyme activity, inhibitor | – | – | < 0.5 µM
Cc1cnc(Nc2ccc3c(c2)CCN(C(=O)/C=C/C(=O)C(C)C)C3)nc1-c1cnn(C(C)C)c1 | JAK3 | enzyme activity, inhibitor, ADP detection | – | – | > 0.03 µM
COc1ccc(CNC(=O)c2cccc(CNc3ccncn3)c2)cc1OC | WD repeat-containing protein 5 (WDR5, Homo sapiens, UniProt P61964) | – | – | – | 10.7 µM and ≤ 20 µM
O=C(O)Cc1cc2c(cc1C(=O)c1ccccc1Br)OCO2 | Gria1/Gria2 | ion current, antagonist, patch clamp | – | – | 4.57 µM
C=C(NC(=O)c1csc(-c2nc3c(cc2O)-c2nc(cs2)C(=O)NC(C(C)O)C(=O)NC(=C(C)OC)c2nc(cs2)C(=O)NC2c4nc(cs4)C(=O)NC(COC(=O)c4c5c6c(cccc6n4O)COC(=O)C(OC4CC(C)(O)C(N(C)C)C(C)O4)C2OC5)c2nc-3cs2)n1)C(N)=O (stereo not shown) | Cytochrome P450 2E1 (CYP2E1, Homo sapiens, UniProt P05181) | enzyme activity, inhibitor | human, liver microsomes | pH 7.4 | > 50 µM
OC[C@@H]1[C@@H](O)[C@H](O)[C@@H](O)CN1CCCC/C=C\C12CC3CC(CC(C3)C1)C2 | GBA1 R534H | inhibitor, 4MU-β-D-glucopyranoside | – | with: 4MU-β-D-glucopyranoside | 0.5 µM
CC1(C)C(=O)N=C2C1=C(O)C(=O)c1ccccc12 | N-lysine methyltransferase SMYD2 (SMYD2, Homo sapiens, UniProt Q9NRG4, G165E) | enzyme activity, inhibitor | – | – | 3 µM
OC[C@@H]1[C@@H](O)[C@H](O)[C@@H](O)CN1CCCCCOCc1ccccc1-c1ccccc1 | GBA1 R534H | inhibitor, 4MU-β-D-glucopyranoside | – | with: 4MU-β-D-glucopyranoside | 1.25 µM
CCN(CC)CC(=O)Nc1cccc(-n2cc(-c3ccc4ccc(-c5cn(-c6cccc(NC(=O)CN(CC)CC)c6)nn5)cc4c3)nn2)c1 | Fibroblast growth factor receptor 3 (FGFR3, Homo sapiens, UniProt P22607) | enzyme activity, inhibitor | – | – | > 10 µM
Cc1cc(C)c(S(=O)(=O)N(CC(=O)O)c2ccc(Nc3ccnc(N4CCCC4)n3)cc2)c(C)c1 | CDK6 | enzyme activity, inhibitor | – | – | > 100 µM
CC(C)CCC[C@@H](C)[C@H]1CC[C@H]2[C@@H]3CC=C4C[C@@H](OCCCCCN5C[C@H](O)[C@@H](O)[C@H](O)[C@@H]5CO)CC[C@]4(C)[C@H]3CC[C@]12C | GBA1 R534H | inhibitor, 4MU-β-D-glucopyranoside | – | with: 4MU-β-D-glucopyranoside | 15 µM
CCOc1cc(CN2CC3(CC(N4CCC(C(=O)O)CC4)=NO3)C2)cc(OCC)c1-c1ccc(F)cc1 | Somatostatin receptor type 5 (SSTR5, Homo sapiens, UniProt P35346, D119A) | cAMP level, antagonist, GloSensor | AD293 | D119A mutant, bandwidth 3.32, with: CST17 EC80 and forskolin | 3.39 µM
COCCN(C)C(C)C(=O)NC(Cc1ccc(-c2ccccc2)cc1)B(O)O (stereo not shown) | 20S proteasome, beta1 subunit (Plasmodium falciparum, UniProt Q8I0U7+Q8I6T3) | β1 activity, inhibitor | – | with: Ac-nLPnLD-AMC | > 10 µM
O=C(/C=C/c1cc2c(cc1Br)OCO2)c1ccc(Br)cc1 | P4HB | enzyme activity, inhibitor | – | – | 66 µM
CC(C)C[C@H](NC(=O)[C@H](Cc1ccc(CN)cc1)NC(=O)[C@H](Cc1ccccc1)N=[N+]=[N-])C(=O)N[C@@H](CC1CCC(C)CC1)C(=O)[C@@]1(C)CO1 (stereo partly shown) | PSMB8 | enzyme activity, inhibitor | – | lysate | 0.43 µM
O=C(O)Cc1cc2c(cc1C(=O)c1ccccc1I)OCO2 | Gria1/Gria2 | ion current, antagonist, patch clamp | – | – | 4.68 µM
CC(C)C[C@H](NC(=O)[C@H](Cc1ccc(CN)cc1)NC(=O)[C@H](Cc1ccccc1)N=[N+]=[N-])C(=O)N[C@@H](CC1CCC2CCCCC2C1)C(=O)[C@@]1(C)CO1 (stereo partly shown) | PSMB8 | enzyme activity, inhibitor | – | lysate | > 10 µM
O=S(=O)(Nc1ccc(CO)cc1)c1ccc(Cl)c(Cl)c1 | 17-beta-hydroxysteroid dehydrogenase 13 (Homo sapiens, UniProt Q7Z5P4) | enzyme activity, inhibitor | – | with: β-estradiol | > 80 µM
O=C(/C=C/c1ccc2c(c1)OCCO2)c1cc(Br)ccc1O | P4HB | enzyme activity, inhibitor | – | – | > 100 µM
Cc1nc2ccccc2c(=O)n1N | Phospholipase A2 group V (PLA2G5, Homo sapiens, UniProt P39877) | enzyme activity, inhibitor, colorimetric | – | – | 26.3 ± 0.57 µM
CCCCCN1C[C@H](O)[C@@H](O)[C@H](O)[C@H]1CO | GBA1 R534H | inhibitor, 4MU-β-D-glucopyranoside | – | with: 4MU-β-D-glucopyranoside | 500 µM
O=C(/C=C/c1cccc(C(F)(F)F)c1)c1cccc(O)c1 | P4HB | enzyme activity, inhibitor | – | – | 0.97 µM
CCCCCCCOCCCCCN1C[C@H](O)[C@@H](O)[C@H](O)[C@@H]1CO | GBA1 R534H | inhibitor, 4MU-β-D-glucopyranoside | – | with: 4MU-β-D-glucopyranoside | 40 µM

Structure (SMILES) | target | assay | system | conditions | IC50
OC[C@H]1c2[nH]cnc2[C@H](O)[C@@H](O)[C@@H]1O | bglA (Thermotoga maritima, UniProt Q08638) | enzyme activity, inhibitor | – | pH 6.8, with preincubation | 107 µM
OC[C@H]1[C@@H](O)[C@H](O)[C@@H](O)CN1CCCCCOCC1CCCCC1 | GBA1 R534H | inhibitor, 4MU-β-D-glucopyranoside | – | with: 4MU-β-D-glucopyranoside | 60 µM
O=C(O)Cc1cc2c(cc1C(=O)c1cccc(I)c1)OCO2 | Gria1/Gria2 | ion current, patch clamp | – | – | 4.66 µM
COc1ccc(Br)cc1/C=C/C(=O)c1ccc([N+](=O)[O-])cc1 | P4HB | enzyme activity, inhibitor | – | – | > 100 µM
O=C(NO)c1cccc(OS(=O)(=O)Oc2ccccc2)c1 | HDAC6 | enzyme activity, inhibitor, fluorescence | – | – | 0.132 µM
CC[C@H](C)C(=O)O[C@H]1C[C@@H](C)C=C2C=C[C@H](C)[C@H](CC[C@@H]3CC=CC(=O)O3)[C@H]21 | Cystic fibrosis transmembrane conductance regulator (CFTR, Homo sapiens, UniProt P13569) | apical chloride current, inhibitor | T84, basolaterally permeabilized | with: cAMP agonists | ~1 µM
CCc1c(C)[nH]n(-c2ccc(Oc3ccccc3)c(S(=O)(=O)O)c2)c1=O | Protein FosB, ΔFosB isoform, with JunD (Fosb, Mus musculus, UniProt P13346) | ΔFosB/JunD binding to AP-1 DNA, inhibitor, fluorescence polarization | – | protein, full length 280 nM, no TCEP, with: 25 nM TMR-cdk5 oligonucleotide | 10 to 90 µM
Cc1cc(C)nc(Nc2ccc([C@@H]3CCCN(C(=O)/C=C/c4csc(C)n4)C3)nc2)n1 | CDK6 | enzyme activity, inhibitor, ADP detection | – | – | 0.226 µM and 0.361 µM
O=C(O)c1ccc2[nH]c(-c3ccc(OCC(O)COc4ccc(-c5nc6cc(C(=O)O)ccc6[nH]5)cc4)cc3)nc2c1 | Beta-lactamase (Escherichia coli, UniProt Q8VNN1) | enzyme activity, inhibitor | – | – | 69 ± 22 µM
C[C@@H](Nc1nc2c(cnn2C(C)(C)C)c(=O)n1Cc1cccc(F)c1)c1ccc(Cl)cc1 | cGMP-inhibited 3',5'-cyclic phosphodiesterase 3A (PDE3A, Homo sapiens, UniProt Q14432) | enzyme activity, inhibitor | – | – | > 10 µM
O=C(NO)c1cc(F)cc(OS(=O)(=O)Oc2ccc(Br)cc2)c1 | HDAC6 | enzyme activity, inhibitor, fluorescence | – | – | 0.225 µM
OC[C@@H]1[C@@H](O)[C@H](O)[C@@H](O)CN1CCCCCOCc1ccc(-c2ccc3c(c2)OCO3)cc1 | GBA1 R534H | inhibitor, 4MU-β-D-glucopyranoside | – | with: 4MU-β-D-glucopyranoside | 0.5 µM
C[C@@H](O)[C@@H]1NC(=O)[C@H](CCCCN)NC(=O)[C@@H](Cc2ccc(NC(N)=O)cc2)NC(=O)[C@H](Cc2ccc(O)cc2)NC(=O)[C@H](NC(=O)[C@@H](N)Cc2ccc(Cl)cc2)CSSC[C@@H](C(=O)N[C@@H](Cc2ccc3ccccc3c2)C(N)=O)NC1=O | Somatostatin receptor type 1 (SSTR1, Homo sapiens, UniProt P30872) | ligand displacement, radioligand | – | – | > 1 µM
O=C(/C=C/c1ccc(Cl)cc1Cl)c1ccc2c(c1)OCCO2 | P4HB | enzyme activity, inhibitor | – | – | > 10 µM
CC(C)(O)c1ccc(N2Cc3c(ccnc3-c3ccc(F)cc3OCC(F)(F)F)C2=O)cc1 | Lysosomal acid glucosylceramidase (GBA1, Homo sapiens, UniProt P04062) | enzyme activity, inhibitor | – | – | > 300 µM
CNC(=O)Nc1ccc(Cc2ccc(NC(=O)c3nc(N)sc3-c3ccccc3)cc2)cc1 | Epithelial discoidin domain-containing receptor 1 (DDR1, Homo sapiens, UniProt Q08345) | ligand displacement | – | – | 1.5 µM
CCc1ccc(C(=O)/C=C/c2ccc(O)cc2)cc1 | P4HB | enzyme activity, inhibitor | – | – | > 100 µM
O=C(CCNc1cccc2c1C(=O)N(C1CCC(=O)NC1=O)C2=O)NCCOCCOCCOCCN1CCC(CNC(=O)c2cccc(-c3noc(C(F)(F)F)n3)c2)(c2nc(-c3ccccc3)cs2)CC1 (stereo not shown) | Histone deacetylase 9 (HDAC9, Homo sapiens, UniProt Q9UKV0) | enzyme activity, inhibitor | – | – | 0.16 µM
Cc1ccc(-c2ccc(COCCCCCN3C[C@H](O)[C@@H](O)[C@H](O)[C@H]3CO)cc2)cc1 | GBA1 R534H | inhibitor, 4MU-β-D-glucopyranoside | – | with: 4MU-β-D-glucopyranoside | 0.25 µM
O=C(O)Cc1cc2c(cc1C(=O)c1ccccc1)OCO2 | Gria1/Gria2 | ion current, patch clamp | – | – | 5.49 µM
Cn1cc(-c2ccc3[nH]c4nccc(N[C@H]5CC[C@H](N6CCOCC6)CC5)c4c3c2)cn1 | Interleukin-1 receptor-associated kinase 4 (IRAK4, Homo sapiens, UniProt Q9NWZ3) | enzyme activity, inhibitor, AlphaScreen | – | with: ATP 200 µM | 0.0336 µM
O=C(O)Cc1cc2c(cc1C(=O)c1ccc(Cl)cc1Cl)OCO2 | Gria1/Gria2 | ion current, patch clamp | – | – | 3.93 µM
Cc1nn(-c2cccc(N)c2)c(=O)c2cnc(Nc3ccc(N4CCNCC4)cc3)nc12 | JAK3 | enzyme activity, inhibitor | – | – | 2.12 µM
Fc1ccc(Nc2nc(NC3CCCCC3)c3ccccc3n2)cc1F | Beta-2 adrenergic receptor (ADRB2, Homo sapiens, UniProt P07550, I153L) | β-arrestin2 recruitment, antagonist, BRET | HEK293 | mutant I153L, with: isoprenaline 1 µM | 1.26 µM
